Published values pooled from the literature.

| Compound | test | system | setting | scale | quantity | value |
| --- | --- | --- | --- | --- | --- | --- |
| CN[C@@H]1[C@H](O)[C@H](NC)[C@H]2O[C@]3(O)[C@H](O[C@@H]2[C@H]1O)O[C@H](C)C[C@@]3(O)CNCCC1CCOCC1 |  | female BALB/c mice | subcutaneous, 3 days, twice daily |  | maximum tolerated dose | 100 mg/kg |
| CC(C)C[C@H](NC(=O)[C@H](CCCNC(=N)N)NC(=O)CNC(=O)CNC(=O)[C@@H](N)CCCNC(=N)N)C(=O)N[C@H]1CSSC[C@@H](C(=O)N[C@H](C(=O)NCC(=O)N[C@@H](CCCNC(=N)N)C(N)=O)C(C)C)NC(=O)[C@H](C(C)C)NC(=O)[C@@H]2CSSC[C@H](NC(=O)[C@H](Cc3ccc(O)cc3)NC1=O)C(=O)N[C@@H](CCCNC(=N)N)C(=O)N[C@@H](CCCNC(=N)N)C(=O)N[C@@H](CCCNC(=N)N)C(=O)N[C@@H](Cc1ccccc1)C(=O)N2 |  | BALB/c mice | intraperitoneal, mild toxicity resolved by 24 h |  | maximum tolerated dose | 5 mg/kg |
| CCCC[C@H]1C(=O)N(C)[C@@H](CCCC)C(=O)N[C@@H](CCCNC(=O)CN2CCN(CC(=O)O)CCN(CC(=O)O)CCN(CC(=O)O)CC2)C(=O)N[C@H](C(=O)NCC(N)=O)CSCC(=O)N[C@@H](Cc2ccc(O)cc2)C(=O)N(C)[C@@H](C)C(=O)N[C@@H](CC(N)=O)C(=O)N2CCC[C@H]2C(=O)N[C@@H](Cc2c[nH]cn2)C(=O)N[C@@H](CC(C)C)C(=O)N(C)CC(=O)N[C@@H](Cc2c[nH]c3ccccc23)C(=O)N[C@@H](CO)C(=O)N[C@@H](Cc2c[nH]c3ccccc23)C(=O)N1C [gallium-68 labelled] | dynamic PET | NOD/SCID mice, CHO-hPD-L1 xenograft, CHO-hPD-L1 tumour | intravenous, 120 min scan |  | maximum tumour uptake | 6.29 %ID/g |
| CC(C)(C)C(=O)OCOP(=O)(OCOC(=O)C(C)(C)C)C1CCCN(O)C1=O (centres unmarked) |  | nude mice | intravenous |  | maximum tolerated single dose | 30 mg/kg |
| CC[C@H](C)[C@@H]1NC(=O)[C@@H]2CSSC[C@@H]3NC(=O)[C@H](C(C)C)NC(=O)CNC(=O)CNC(=O)[C@H](CCCNC(=N)N)NC(=O)[C@H](CCCNC(=N)N)NC(=O)CNC(=O)[C@H](C(C)C)NC(=O)[C@@H]4CSSC[C@H](NC(=O)[C@H](CC(C)C)NC(=O)[C@H](CCCNC(=N)N)NC(=O)CNC(=O)CNC(=O)[C@H](CO)NC(=O)CNC(=O)[C@H](CO)NC(=O)CNC(=O)[C@@H]5CSSC[C@H](NC(=O)[C@H](CC(=O)O)NC(=O)[C@H](CO)NC(=O)[C@H](CC(=O)O)NC(=O)[C@H](CCCNC(=N)N)NC(=O)[C@H](CCCNC(=N)N)NC(=O)[C@H](CSSC[C@H](NC1=O)C(=O)N[C@@H](CCCNC(=N)N)C(=O)NCC(=O)N[C@@H](CC(N)=O)C(=O)NCC(=O)N[C@@H](Cc1ccc(O)cc1)C(=O)N5)NC(=O)[C@H](CCCNC(=N)N)NC(=O)[C@H](CCC(N)=O)NC(=O)[C@H](CC(C)C)NC(=O)[C@H]([C@@H](C)CC)NC(=O)[C@H](CCCCN)NC(=O)[C@@H]1CCCN1C3=O)C(=O)N1CCC[C@H]1C(=O)NCC(=O)N[C@@H](C)C(=O)N2)C(=O)N[C@@H](Cc1ccc(O)cc1)C(=O)N[C@H]1CSSC[C@H](NC(=O)[C@H](Cc2ccccc2)NC(=O)[C@H](CCCNC(=N)N)NC(=O)[C@H](CCCNC(=N)N)NC(=O)[C@H](CCCNC(=N)N)NC1=O)C(=O)N[C@@H](C(C)C)C(=O)N4 |  | BALB/c mice | intraperitoneal, mild toxicity resolved by 24 h |  | maximum tolerated dose | 25 mg/kg |
| N=C(N)NCCC[C@@H](NC(=O)[C@@H](CCCNC(=N)N)NC(=O)[C@@H](CCCNC(=N)N)NC(=O)[C@@H](CCCNC(=N)N)NC(=O)[C@@H](CCCNC(=N)N)NC(=O)[C@@H](CCCNC(=N)N)NC(=O)[C@@H](CCCNC(=N)N)NC(=O)[C@@H](CCCNC(=N)N)NC(=O)[C@@H](CCCNC(=N)N)NC(=O)CCC(=O)NCCOCCOCCNC(=O)CCC(=O)NCCOCCOCCNC(=O)[C@@H](CCC(=O)O)NC(=O)[C@@H](CCC(=O)O)NC(=O)[C@@H](CCC(=O)O)NC(=O)[C@@H](CCC(=O)O)NC(=O)[C@@H](CCC(=O)O)NC(=O)[C@@H](CCC(=O)O)NC(=O)[C@@H](CCC(=O)O)NC(=O)[C@@H](CCC(=O)O)NC(=O)CCC(=O)O)C(N)=O |  | athymic nude mice | intravenous, dose not given | reference: cell-penetrating peptide | maximum tolerated dose ratio | ≥ 20 fold |
| Cc1c(CN(C)C(=O)/C=C/c2cnc3c(c2)CC(N)C(=O)N3)oc2ccccc12 (centres unmarked) |  | C57BL/6 mice female | intraperitoneal, 2 weeks, single dose |  | maximum tolerated dose | 50 mg/kg |
| C[C@H](Nc1c(-c2c(F)cc(OCCCN(C)C)cc2F)c(Cl)nc2ncnn12)C(F)(F)F |  | BALB/c mice | intraperitoneal, up to 48 h, single increasing doses |  | maximum tolerated dose | 10 to 15 mg/kg |
